Published values from different studies.
Each line is one published result; not all experiments were run side by side. ± marks the error that the study gave.
Cell line: DU-145

| SMILES | observed | technique | time | IC50 [µM] |
| --- | --- | --- | --- | --- |
| C1=CCCC=CCC1.C1=CCCC=CCC1.O=C(N=P12CN3CN(CN(C3)C1)C2)c1cccc[c]1[Pt+].O=C(N=P12CN3CN(CN(C3)C1)C2)c1cccc[c]1[Pt+].[Cl][Hg-]([Cl])[Cl].[Cl][Hg-]([Cl])[Cl].[Cl][Hg][Cl].[Cl][Hg][Cl] | cell growth or viability | MTT | 24 h | 22.5 |
| CC1(CCCOC2C(CO)OC(O)C(O)C2O)C(=O)[O][Pt][O]C1=O.NC1CCCCC1N (mixture of isomers) | cytotoxicity | MTT | 7.5 h plus 64 h recovery | 18 ± 2 |
| COC(=O)[C@@H](NC(=O)[C@@H](NC(=O)[C@@H](NC(=O)[C@@H]1CCCN1C(=O)[C@H](C)NC(=O)OC(C)(C)C)C(C)C)C(C)C)C(C)C | cell growth or viability | SRB | – | 21 |
| CC1(CCCOC2C(O)OC(CO)C(O)C2O)C(=O)[O][Pt][O]C1=O.NC1CCCCC1N (mixture of isomers) | cytotoxicity | MTT | 7.5 h plus 64 h recovery | 9 ± 0.5 |
| CC(=O)NCCCCCCCC(=O)N[C@@H](CC(C)C)C(=O)N[C@@H](CC(C)C)C(=O)N[C@@H](CC(C)C)C(=O)N[C@@H](CC(C)C)C(=O)N[C@@H](CCCNC(=N)N)C(=O)N[C@H](C(=O)N[C@@H](CCCCN)C(=O)N[C@@H](CCCNC(=N)N)C(N)=O)C(C)C | cell growth or viability | MTT | 72 h | 80 to 100 |
| C/C1=C\CC[C@@]2(C)O[C@H]2[C@H]2OC(=O)C(C)[C@@H]2CC1 (some centres unmarked) | cell growth or viability | resazurin | – | > 500 |
| C#CCCCC[C@H](C)C[C@@H](C)C(=O)N(C)[C@@H](C)C(=O)N1CCC[C@H]1C(=O)N(C)[C@H](C(=O)N(C)[C@H](C(=O)OC)C(C)C)C(C)C | cell growth or viability | SRB | – | 1 |
| CC1(CCCOC2C(O)C(O)OC(CO)C2O)C(=O)[O][Pt][O]C1=O.NC1CCCCC1N (mixture of isomers) | cell growth or viability | MTT | – | 3.4 |
| CC[C@H](C)[C@H](NC(=O)[C@@H](N)Cc1ccc(O)cc1)C(=O)N[C@@H](Cc1ccccc1)C(=O)N[C@@H](CC(N)=O)C(=O)N[C@@H](CC(C)C)C(=O)O | cell proliferation | tetrazolium | – | 0.00044 |
| O=C(N=P12CN3CN(CN(C3)C1)C2)c1cccc[c]1[Pd][Br].c1cncc(P(c2cccnc2)c2cccnc2)c1 | cell growth or viability | MTT | 24 h | 299 |
| CC1(CCCO[C@H]2O[C@H](CO)[C@@H](O)[C@H](O)[C@H]2O)C(=O)[O][Pt][O]C1=O.N[C@@H]1CCCC[C@H]1N | cytotoxicity | MTT | 7.5 h plus 64 h recovery | 11 ± 1 |
| O=C(C[P+]([Au-][Cl])(c1ccccc1)c1ccccc1)[O][Ti+2][O]C(=O)C[P+]([Au-][Cl])(c1ccccc1)c1ccccc1.c1cc[cH-]c1.c1cc[cH-]c1 | cell viability | XTT | 72 h | 35.5 |
| O=C(N=P12CN3CN(CN(C3)C1)C2)c1ccccn1.[Cl][Pt][Cl] | cell growth or viability | MTT | 24 h | 65.3 |
| CC(=O)[C@@H]1CCCN1C(=O)[C@@H]1CCCN1C(=O)[C@H](Cc1ccccc1)NC(=O)[C@@H](NC(=O)[C@@H](NC(=O)[C@@H](NC(=O)[C@@H]1CCCN1C(=O)[C@H](C)NC(=O)OC(C)(C)C)C(C)C)C(C)C)C(C)C | cell growth or viability | SRB | – | 1 |

For quick reference, copied from above:
| SMILES | observed | technique | time | IC50 [µM] |
| --- | --- | --- | --- | --- |
| O=C(N=P12CN3CN(CN(C3)C1)C2)c1cccc[c]1[Pd][Br].c1cncc(P(c2cccnc2)c2cccnc2)c1 | cell growth or viability | MTT | 24 h | 299 |
| CC1(CCCO[C@H]2O[C@H](CO)[C@@H](O)[C@H](O)[C@H]2O)C(=O)[O][Pt][O]C1=O.N[C@@H]1CCCC[C@H]1N | cytotoxicity | MTT | 7.5 h plus 64 h recovery | 11 ± 1 |
